# Experimental data of several laboratories.
# Parts stem from different laboratories: compare values within a part only. Substitutions count along the parent as printed.

# Sample 1 — target: CCNA1, cyclin fold, Cln2 fusion (human); method: yeast growth competition, sequencing; sample: yeast; notes: weak parent motif; baseline: not given; reading: higher = stronger binding
# Starting sequence: SLBP docking peptide (human); ARYKRKLLINDFG
Change,normalised enrichment score
ARYKRKFLINDFG [L7F],0.406
ARYKRKLLKNDFG [I9K],0.351
ARCKRKLLINDFG [Y3C],0.285
ADYKRKLLINDFG [R2D],0.52
ARSKRKLLINDFG [Y3S],0.348
ARYKRKLLENDFG [I9E],0.274
DRYKRKLLINDFG [A1D],0.479
ATYKRKLLINDFG [R2T],0.859
ARYKRKLKINDFG [L8K],-0.322
ARYKRKLLINDFL [G13L],-0.00861
ARYKNKLLINDFG [R5N],0.224
ARYKRKLLILDFG [N10L],0.713
ARYKRKLLINYFG [D11Y],0.367
ARYKRKLLINDRG [F12R],0.615
ARYKRKWLINDFG [L7W],-0.107
ARYKRKLLINDFF [G13F],0.221
ARYMRKLLINDFG [K4M],0.42
AFYKRKLLINDFG [R2F],0.307
ARWKRKLLINDFG [Y3W],0.0961
ARYKRYLLINDFG [K6Y],0.122
IRYKRKLLINDFG [A1I],0.0731
ARYKRKLCINDFG [L8C],0.143

# Sample 2 — method: protein-binding microarray; form: double-stranded DNA, one strand shown; sample: in vitro; tested at: 940 nM top; notes: 60-bp whole probe; together with: salmon DNA 0.4 mg/ml; baseline: random background probes; reading: higher = stronger binding; constant ends, left off below: GCCTAGCAC … GTCTTGATTCGCTTGACGCTGCTG
# Target: Interferon regulatory factor 5, full length, phosphomimetic (IRF5, Homo sapiens, UniProt Q13568-2, residues 1-514, S451D/S453D/S456D/S462D)
Oligonucleotide,fitted relative affinity [z-score]
GACGGTTCCGGTTTCGGTACGTGCTAG,8.72
TTAGGTATCCACACTGGGTTAGTGCTA,-0.0221
TTAGGACTGGGGTATAGGTTAGTGCTA,0.248
ATGTTTTTCATTTTGTTCATGTGCTAG,2.07
GACGGCCTCGGTTTCGGGACGTGCTAG,3.05
CCCTGTCTGTCCAGAAACCCGTGCTAG,0.216
TCACGGCTCTAAACTCATACTGTGCTA,0.0829
GACGAACTGGGTACTGGAGACGTGCTA,-0.141
CTGTTTTTCTCACCACATTTTGTGCTA,2.05
TCACATTTACATTTTAGACTGTGCTAG,0.816
GAGGGTCTCCTTTTCCTGACGTGCTAG,0.315
TCAGAACTGGGGTTTCGATTAGTGCTA,5.15
TGAGCTTACAATATAAAAGGGTGCTAG,-0.353
GACGATATCAGTACCGAGACGTGCTAG,-0.0349
GACGCACTGGGGTTTCGGGACGTGCTA,2.31
GACGGACTTCTTTTCCTGACGTGCTAG,0.337
TTAGTTATCCTTCTCCTTTAGTGCTAG,0.579
TTAGATCTCAGACTGGCTTAGTGCTAG,-0.571
ATTGAGAATTCCACTCCGCTGTGCTAG,0.0888

# Sample 3 — method: protein-binding microarray; form: hairpin DNA; sample: in vitro; tested at: not given; baseline: not given; reading: higher = stronger binding
# Target: Protein C-ets-1, full length (ETS1, Homo sapiens, UniProt P14921, residues 1-441)
# Notes: whole hairpin DNA, median over replicate spots
# Target sequence (chain): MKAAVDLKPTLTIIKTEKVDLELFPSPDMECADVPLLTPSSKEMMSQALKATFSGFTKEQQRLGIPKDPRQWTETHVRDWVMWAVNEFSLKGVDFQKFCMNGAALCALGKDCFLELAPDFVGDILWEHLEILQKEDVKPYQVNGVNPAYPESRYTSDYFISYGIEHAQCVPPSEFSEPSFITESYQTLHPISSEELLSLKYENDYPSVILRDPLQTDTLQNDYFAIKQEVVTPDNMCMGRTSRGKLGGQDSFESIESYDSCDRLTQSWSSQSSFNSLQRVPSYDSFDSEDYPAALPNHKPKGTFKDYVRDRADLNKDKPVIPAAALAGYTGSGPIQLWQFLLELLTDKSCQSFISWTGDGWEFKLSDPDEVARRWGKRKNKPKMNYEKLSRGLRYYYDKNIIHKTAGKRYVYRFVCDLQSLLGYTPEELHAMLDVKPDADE
Oligonucleotide,median fluorescence [a.u.]
GAGGCCAACCGGAAGTTGCCTCCTGGCAACTTCCGGTTGGCCTCACACTC,12600
GAGGCCAGCCGGAAGGTGCCTCCTGGCACCTTCCGGCTGGCCTCACACTC,3140
GAGGCCAGCCGGAAGCGGCCTCCTGGCCGCTTCCGGCTGGCCTCACACTC (5mC at 16 28),5660
GAGGCCGGTCGGAAGTTGCCTCCTGGCAACTTCCGACCGGCCTCACACTC,3170
GAGGCCACGCGGAAGTTGCCTCCTGGCAACTTCCGCGTGGCCTCACACTC (5mC at 8 36),3110
GAGGCCAGCCCGAAGTTGCCTCCTGGCAACTTCGGGCTGGCCTCACACTC,561
GAGGCCAGCCGGAAGTTGCCTCCTGGCAACTTCCGGCTGGCCTCACACTC (5mC at 33),4790
GAGGCCAGTCGGAAGTTGCCTCCTGGCAACTTCCGACTGGCCTCACACTC (5mC at 10 34),646
GAGGCCAGTCGGGAGTTGCCTCCTGGCAACTCCCGACTGGCCTCACACTC (5mC at 32),530
GAGGCCAGTCGGAAGGTGCCTCCTGGCACCTTCCGACTGGCCTCACACTC,887
GAGGCCAGCCGGCGGTTGCCTCCTGGCAACCGCCGGCTGGCCTCACACTC (5mC at 13 31),549
GAGGCCAGCCGTAAGTTGCCTCCTGGCAACTTACGGCTGGCCTCACACTC,557
GAGGCCAGCCCGAAGTTGCCTCCTGGCAACTTCGGGCTGGCCTCACACTC (5mC at 11),566
GAGGCCAGTCGGAACGTGCCTCCTGGCACGTTCCGACTGGCCTCACACTC,586
GAGGCCAGTCGGAACGTGCCTCCTGGCACGTTCCGACTGGCCTCACACTC (5mC at 15 29),602
GAGGCCAGCCGGAAGTCGCCTCCTGGCGACTTCCGGCTGGCCTCACACTC (5mC at 17),11100
GAGGCCAGTCGGCGGTTGCCTCCTGGCAACCGCCGACTGGCCTCACACTC (5mC at 31),593

# Sample 4 — method: DHFR PCA, dose-response; sample: yeast; together with: (+)-ABA, dose series; reading: lower = more sensitive
# Target: ABI1, truncated, D143A, DHFR fusion (Arabidopsis thaliana, UniProt P49597)
# Notes: Hill fit, not affinity, not high confidence
# Starting sequence: PYL1, truncated, DHFR fusion (Arabidopsis thaliana, UniProt Q8VZS8); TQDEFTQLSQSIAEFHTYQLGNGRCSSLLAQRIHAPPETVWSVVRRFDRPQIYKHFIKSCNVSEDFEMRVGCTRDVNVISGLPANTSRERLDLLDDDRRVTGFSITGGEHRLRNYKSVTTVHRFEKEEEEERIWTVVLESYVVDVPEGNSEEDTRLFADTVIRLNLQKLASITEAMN
Change,ABA EC50 [µM]
C60W,767
P50T,0.534
T101M,13
L166A,859
V161K,3.35
R74H,8.63
H110D,1.07
A35D,42.2
P50S,294
F157Q,1380
Y141N,13.3
S87N,0.0744
A158D,0.662
V121R,0.143
W41D,3.28
H110R,3.43
L164D,609
W41E,21.9
F157P,4.56
I33Y,642
Y141L,820
R74F,4.64
